Experimental data gathered from unrelated publications.
± gives the spread as reported.
cyp121: Mycocyclosin synthase (cyp121, Mycobacterium tuberculosis, UniProt P9WPP7)

Protein sequences, listed by entry. Tags and fused reporters are not part of them. Residues count along the entry.
UniProt P9WPP7, whole entry: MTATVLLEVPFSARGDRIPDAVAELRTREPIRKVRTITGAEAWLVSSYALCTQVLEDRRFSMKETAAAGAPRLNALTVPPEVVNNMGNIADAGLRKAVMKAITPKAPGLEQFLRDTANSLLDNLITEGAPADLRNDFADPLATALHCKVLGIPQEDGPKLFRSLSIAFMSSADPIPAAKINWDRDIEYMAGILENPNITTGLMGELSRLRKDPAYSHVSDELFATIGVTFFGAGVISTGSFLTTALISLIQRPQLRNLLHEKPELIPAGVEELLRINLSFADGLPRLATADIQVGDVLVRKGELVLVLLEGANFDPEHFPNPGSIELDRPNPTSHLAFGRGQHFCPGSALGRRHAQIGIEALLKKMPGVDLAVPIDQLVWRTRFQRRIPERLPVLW
UniProt Q9H9B1, 1126-1243 limits assumed: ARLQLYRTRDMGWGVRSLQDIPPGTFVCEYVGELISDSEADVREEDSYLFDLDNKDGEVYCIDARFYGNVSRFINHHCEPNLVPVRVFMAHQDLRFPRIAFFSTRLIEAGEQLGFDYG
UniProt P34913, whole entry: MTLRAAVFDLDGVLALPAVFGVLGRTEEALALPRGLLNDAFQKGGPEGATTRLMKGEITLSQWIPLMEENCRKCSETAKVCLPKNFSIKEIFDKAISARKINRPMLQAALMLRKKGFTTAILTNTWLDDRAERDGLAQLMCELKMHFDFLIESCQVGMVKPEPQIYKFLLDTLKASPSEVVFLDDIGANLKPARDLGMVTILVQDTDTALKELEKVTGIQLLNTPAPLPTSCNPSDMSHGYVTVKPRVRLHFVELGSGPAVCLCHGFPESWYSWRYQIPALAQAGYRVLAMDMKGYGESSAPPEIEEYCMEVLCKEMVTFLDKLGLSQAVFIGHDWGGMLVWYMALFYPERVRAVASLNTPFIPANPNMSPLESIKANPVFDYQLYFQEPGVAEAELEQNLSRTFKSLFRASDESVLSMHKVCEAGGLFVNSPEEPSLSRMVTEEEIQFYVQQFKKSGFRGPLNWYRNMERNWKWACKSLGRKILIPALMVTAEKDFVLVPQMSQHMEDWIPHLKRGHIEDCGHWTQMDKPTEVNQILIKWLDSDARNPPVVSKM
UniProt P0C0H6, whole entry: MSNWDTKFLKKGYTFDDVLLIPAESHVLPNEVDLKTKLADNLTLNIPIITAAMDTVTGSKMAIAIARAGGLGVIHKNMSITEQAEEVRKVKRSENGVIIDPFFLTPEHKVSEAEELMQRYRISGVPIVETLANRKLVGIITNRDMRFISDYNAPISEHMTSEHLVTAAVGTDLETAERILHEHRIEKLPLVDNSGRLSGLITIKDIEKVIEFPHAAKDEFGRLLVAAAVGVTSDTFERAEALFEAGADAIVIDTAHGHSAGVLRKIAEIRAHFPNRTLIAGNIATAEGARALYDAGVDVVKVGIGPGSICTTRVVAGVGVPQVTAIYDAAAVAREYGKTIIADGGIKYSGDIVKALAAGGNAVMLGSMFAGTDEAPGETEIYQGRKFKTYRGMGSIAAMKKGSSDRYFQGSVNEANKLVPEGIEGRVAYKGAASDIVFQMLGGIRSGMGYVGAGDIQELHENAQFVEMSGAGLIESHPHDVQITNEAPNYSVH
UniProt P06802, 92-905 isoform 2 limits assumed: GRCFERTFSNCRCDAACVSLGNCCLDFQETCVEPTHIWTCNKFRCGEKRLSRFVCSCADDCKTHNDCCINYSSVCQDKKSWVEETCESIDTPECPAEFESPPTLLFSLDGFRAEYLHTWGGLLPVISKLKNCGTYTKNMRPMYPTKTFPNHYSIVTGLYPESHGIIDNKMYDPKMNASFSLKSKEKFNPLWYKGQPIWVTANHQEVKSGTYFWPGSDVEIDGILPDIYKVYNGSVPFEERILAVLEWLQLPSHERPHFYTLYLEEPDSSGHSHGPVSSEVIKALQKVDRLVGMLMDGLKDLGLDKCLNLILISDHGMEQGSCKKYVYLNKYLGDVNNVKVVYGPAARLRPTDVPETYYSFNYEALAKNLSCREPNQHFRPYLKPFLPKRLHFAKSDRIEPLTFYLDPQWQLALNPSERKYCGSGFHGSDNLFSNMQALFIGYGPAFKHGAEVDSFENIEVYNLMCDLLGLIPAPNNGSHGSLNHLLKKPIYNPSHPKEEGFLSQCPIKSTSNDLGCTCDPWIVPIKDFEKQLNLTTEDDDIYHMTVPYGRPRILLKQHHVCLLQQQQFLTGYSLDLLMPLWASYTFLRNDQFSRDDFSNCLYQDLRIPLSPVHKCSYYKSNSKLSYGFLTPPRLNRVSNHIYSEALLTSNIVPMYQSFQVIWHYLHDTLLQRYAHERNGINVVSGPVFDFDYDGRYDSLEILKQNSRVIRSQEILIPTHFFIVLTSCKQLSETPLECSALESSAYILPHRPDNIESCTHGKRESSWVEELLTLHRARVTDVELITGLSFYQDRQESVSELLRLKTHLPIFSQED
UniProt Q8T6T2, whole entry: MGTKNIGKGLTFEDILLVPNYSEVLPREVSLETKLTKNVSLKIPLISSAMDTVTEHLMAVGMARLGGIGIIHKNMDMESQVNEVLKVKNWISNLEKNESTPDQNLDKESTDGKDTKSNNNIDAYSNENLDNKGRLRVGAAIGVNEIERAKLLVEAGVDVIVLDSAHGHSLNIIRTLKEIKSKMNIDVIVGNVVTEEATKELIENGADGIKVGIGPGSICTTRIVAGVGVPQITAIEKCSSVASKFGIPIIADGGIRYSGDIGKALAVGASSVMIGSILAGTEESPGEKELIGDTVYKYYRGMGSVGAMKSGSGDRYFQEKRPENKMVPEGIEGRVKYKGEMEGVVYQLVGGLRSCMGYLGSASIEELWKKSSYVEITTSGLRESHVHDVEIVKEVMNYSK
UniProt P46925, 125-453 limits assumed: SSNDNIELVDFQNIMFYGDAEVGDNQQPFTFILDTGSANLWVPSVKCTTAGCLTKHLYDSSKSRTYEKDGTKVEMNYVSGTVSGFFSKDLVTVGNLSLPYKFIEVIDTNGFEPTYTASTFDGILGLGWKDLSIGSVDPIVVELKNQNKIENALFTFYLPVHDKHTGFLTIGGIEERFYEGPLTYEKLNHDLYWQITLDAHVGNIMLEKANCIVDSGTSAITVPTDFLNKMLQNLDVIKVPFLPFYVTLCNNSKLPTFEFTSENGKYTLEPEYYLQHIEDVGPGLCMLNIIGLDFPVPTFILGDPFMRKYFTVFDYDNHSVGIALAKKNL
UniProt P04293, whole entry: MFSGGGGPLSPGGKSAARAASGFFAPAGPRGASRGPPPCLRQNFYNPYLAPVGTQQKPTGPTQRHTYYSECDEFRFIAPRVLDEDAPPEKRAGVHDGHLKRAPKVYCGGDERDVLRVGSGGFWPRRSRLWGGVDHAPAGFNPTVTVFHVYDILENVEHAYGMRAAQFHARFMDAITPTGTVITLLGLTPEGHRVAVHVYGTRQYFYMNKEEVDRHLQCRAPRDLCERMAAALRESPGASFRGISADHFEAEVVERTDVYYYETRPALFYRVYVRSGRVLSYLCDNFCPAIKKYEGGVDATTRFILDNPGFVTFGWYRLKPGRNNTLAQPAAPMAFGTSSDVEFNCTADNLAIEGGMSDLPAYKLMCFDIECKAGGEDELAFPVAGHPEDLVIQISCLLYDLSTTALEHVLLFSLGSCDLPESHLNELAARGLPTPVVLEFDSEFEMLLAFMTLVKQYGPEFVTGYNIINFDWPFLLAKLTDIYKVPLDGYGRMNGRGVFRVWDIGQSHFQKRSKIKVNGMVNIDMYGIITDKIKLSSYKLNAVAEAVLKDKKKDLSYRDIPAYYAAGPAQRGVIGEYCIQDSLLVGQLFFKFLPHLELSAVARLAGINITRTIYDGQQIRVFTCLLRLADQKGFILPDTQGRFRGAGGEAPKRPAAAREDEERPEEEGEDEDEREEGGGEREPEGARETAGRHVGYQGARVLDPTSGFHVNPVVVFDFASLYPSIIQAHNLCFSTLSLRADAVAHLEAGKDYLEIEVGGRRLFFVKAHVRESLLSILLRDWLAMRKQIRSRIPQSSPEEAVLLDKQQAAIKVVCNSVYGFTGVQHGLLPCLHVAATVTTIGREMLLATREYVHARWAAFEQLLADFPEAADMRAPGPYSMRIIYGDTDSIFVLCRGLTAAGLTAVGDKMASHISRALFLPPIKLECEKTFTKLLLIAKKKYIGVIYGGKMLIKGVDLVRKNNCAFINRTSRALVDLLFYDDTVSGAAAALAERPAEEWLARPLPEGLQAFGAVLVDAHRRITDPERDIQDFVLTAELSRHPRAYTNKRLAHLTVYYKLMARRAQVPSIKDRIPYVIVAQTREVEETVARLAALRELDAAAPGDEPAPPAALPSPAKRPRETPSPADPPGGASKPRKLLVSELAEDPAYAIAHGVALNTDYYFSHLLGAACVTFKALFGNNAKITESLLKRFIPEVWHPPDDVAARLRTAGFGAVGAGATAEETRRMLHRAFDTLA
UniProt Q8VIJ5, whole entry: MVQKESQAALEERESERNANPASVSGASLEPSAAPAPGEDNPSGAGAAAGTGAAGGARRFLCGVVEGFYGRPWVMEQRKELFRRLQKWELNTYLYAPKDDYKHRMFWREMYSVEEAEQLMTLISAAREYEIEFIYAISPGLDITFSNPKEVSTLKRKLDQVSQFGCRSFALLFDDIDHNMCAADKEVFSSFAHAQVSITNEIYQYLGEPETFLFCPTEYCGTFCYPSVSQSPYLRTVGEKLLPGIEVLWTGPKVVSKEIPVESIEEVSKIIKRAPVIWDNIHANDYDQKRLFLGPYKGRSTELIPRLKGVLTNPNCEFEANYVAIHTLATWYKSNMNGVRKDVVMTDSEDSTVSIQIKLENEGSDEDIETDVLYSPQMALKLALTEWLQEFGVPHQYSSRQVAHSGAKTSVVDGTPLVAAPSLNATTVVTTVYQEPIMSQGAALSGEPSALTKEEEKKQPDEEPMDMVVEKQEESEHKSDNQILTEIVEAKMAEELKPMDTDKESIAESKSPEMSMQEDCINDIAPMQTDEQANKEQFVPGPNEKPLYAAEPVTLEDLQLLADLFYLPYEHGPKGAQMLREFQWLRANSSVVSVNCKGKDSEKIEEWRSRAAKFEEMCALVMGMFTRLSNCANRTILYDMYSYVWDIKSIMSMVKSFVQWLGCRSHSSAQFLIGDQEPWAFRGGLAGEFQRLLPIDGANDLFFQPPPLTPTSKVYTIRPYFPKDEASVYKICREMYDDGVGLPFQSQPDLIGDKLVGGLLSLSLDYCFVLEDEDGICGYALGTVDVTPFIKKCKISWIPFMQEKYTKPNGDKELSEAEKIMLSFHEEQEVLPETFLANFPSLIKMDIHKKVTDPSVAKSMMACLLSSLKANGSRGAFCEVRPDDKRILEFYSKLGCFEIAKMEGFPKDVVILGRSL
UniProt P09668, whole entry, looked up: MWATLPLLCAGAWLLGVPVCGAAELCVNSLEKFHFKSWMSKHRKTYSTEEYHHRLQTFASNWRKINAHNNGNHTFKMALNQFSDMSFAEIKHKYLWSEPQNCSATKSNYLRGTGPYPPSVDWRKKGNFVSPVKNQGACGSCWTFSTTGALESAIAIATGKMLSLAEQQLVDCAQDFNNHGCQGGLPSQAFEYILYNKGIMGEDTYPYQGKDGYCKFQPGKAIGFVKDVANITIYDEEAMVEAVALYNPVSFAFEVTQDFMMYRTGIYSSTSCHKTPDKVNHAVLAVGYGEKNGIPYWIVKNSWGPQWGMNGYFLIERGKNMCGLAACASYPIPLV
UniProt P19784, whole entry: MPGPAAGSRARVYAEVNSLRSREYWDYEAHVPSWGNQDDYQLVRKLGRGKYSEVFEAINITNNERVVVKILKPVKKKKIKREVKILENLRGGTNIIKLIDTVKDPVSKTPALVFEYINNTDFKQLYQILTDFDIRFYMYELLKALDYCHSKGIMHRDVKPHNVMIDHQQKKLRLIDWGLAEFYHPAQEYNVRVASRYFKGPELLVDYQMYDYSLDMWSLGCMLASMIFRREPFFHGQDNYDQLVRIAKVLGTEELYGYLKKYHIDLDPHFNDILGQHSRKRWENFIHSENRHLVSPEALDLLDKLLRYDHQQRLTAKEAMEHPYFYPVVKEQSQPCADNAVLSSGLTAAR
UniProt D0CA72, 1-326: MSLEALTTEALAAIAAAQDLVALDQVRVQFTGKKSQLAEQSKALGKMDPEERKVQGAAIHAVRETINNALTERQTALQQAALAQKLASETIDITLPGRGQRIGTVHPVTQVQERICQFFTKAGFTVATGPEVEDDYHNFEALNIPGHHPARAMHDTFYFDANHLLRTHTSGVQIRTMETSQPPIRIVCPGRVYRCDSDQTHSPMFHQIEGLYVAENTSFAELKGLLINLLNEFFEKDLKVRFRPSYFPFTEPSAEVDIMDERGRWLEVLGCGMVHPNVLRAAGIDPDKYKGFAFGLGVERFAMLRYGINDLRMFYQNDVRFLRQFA

For `COc1cc2c(N(C)C)nc(NCCCN(C)C)nc2cc1OCCCCCN`, the Ki was 75000 nM (Histone-lysine N-methyltransferase EHMT1, SET domain (EHMT1, Homo sapiens, UniProt Q9H9B1); methyltransferase activity, inhibitor).
The IC50 of `[2H]C1(C(=O)Nc2ccc3cc(C(=O)O)ccc3c2)CCN(S(=O)(=O)c2ccc(C)cc2C)CC1` is reported as 53 nM (EPHX2 (Homo sapiens, UniProt P34913); pH 7.0, 30 °C, added: CMNPC substrate 5 µM).
The IC50 of `CC(Oc1ccccc1)C(=O)Nc1ccc(Cl)cc1` (stereo not shown) is reported as 12000 nM (Inosine-5'-monophosphate dehydrogenase (Streptococcus pyogenes, UniProt P0C0H6); enzyme activity, inhibitor; corrected for open conformation).
For `COc1cc2ncnc(N3CCC(CCNS(N)(=O)=O)CC3)c2cc1OC`, the Ki was 1600 nM (Enpp1 (Mus musculus, UniProt P06802); enzyme activity, inhibitor, coupled luciferase AMP detection; pH 7.4, added: cGAMP 5 µM).
With `COc1c(C)c2c(c(O)c1CCC(C)CCC(=O)Nc1ccc(Cl)c(C(F)(F)F)c1)C(=O)OC2` (stereo not shown) the Ki was 60 nM (Inosine-5'-monophosphate dehydrogenase (Cryptosporidium parvum, UniProt Q8T6T2); inhibitor; pH 8.0, 25 °C, added: NAD 300 µM, IMP 250 µM).
`CC(C)(NC(=O)Nc1ccc(Cl)c(-c2nc(C(F)(F)F)cs2)c1)c1cccc(C(N)=NO)c1` has a Ki of 4.8 ± 1.5 nM (IMPDH 2, Staphylococcus aureus; inhibitor; added: 500 µM NAD+, 1.0 mM IMP).
With `NC(=O)c1cn(C[C@H](NC(=O)Cc2cccs2)B(O)O)nn1` the Ki was 224 ± 2 nM (ADC-7 beta-lactamase (Acinetobacter baumannii, UniProt Q6DRA1); enzyme activity, inhibitor; 5 min preincubation, pH 7.4, room temperature, added: nitrocefin).
With `CSC[C@H](NC(=O)Cc1ccc(N)cc1)C(=O)N[C@@H](Cc1ccccc1)[C@H](O)C(=O)N1CSC(C)(C)[C@H]1C(=O)N[C@H]1c2ccccc2C[C@H]1O` the Ki was 1.3 nM (Plasmepsin II (Plasmodium falciparum, UniProt P46925); inhibitor, fluorogenic substrate; pH 5.0, 25 °C, mature enzyme).
`Nc1nc2c(ncn2[C@@H]2CC[C@H](OC(C(=O)O)P(=O)(O)O)C2)c(=O)[nH]1` (relative stereo) gave a Ki of 2210 nM (DNA polymerase catalytic subunit (Herpes simplex virus, UniProt P04293); mixed inhibitor, mixed model fit; calf thymus DNA template, added: varying dGTP).
With `CC(=O)Nc1ncc(CN2CC[C@H](Oc3cccc(F)n3)C[C@@H]2C)s1` [isotope labelled] the Kd was 3.3 ± 2.9 nM (Protein O-GlcNAcase (Rattus norvegicus, UniProt Q8VIJ5); saturation binding; rat striatum homogenate; radiolabelled compound).
With `Cc1cscc1-c1ccc(Cn2ccnc2)cc1` the Kd was 21700 ± 2000 nM (cyp121; binding).
For `CC(C)CC(NC(=O)C1OC1C(=O)O)C(=O)NCCCCN=C(N)N` (stereo not shown), the IC50 was 33.7 nM (Pro-cathepsin H (Homo sapiens, UniProt P09668); enzyme activity, inhibitor).
With `COc1ccc(-c2ccc(Cn3ccnc3)c3ccccc23)cc1` the Kd was 1300 ± 110 nM (cyp121; binding).
With `CC(=NO)c1cccc(C(C)(C)NC(=O)Nc2ccc(Cl)c(-c3nc(C(F)(F)F)cs3)c2)c1` the Ki was 4.2 ± 1.7 nM (IMPDH 2, Staphylococcus aureus; inhibitor; added: 500 µM NAD+, 1.0 mM IMP).
For `Cc1ccc(N(C)c2cc(N(C)C3CC3)n3ncc(C#N)c3n2)cc1NC(=O)C1CC1`, the IC50 was > 10000 nM (CSNK2A2 (Homo sapiens, UniProt P19784); target engagement, NanoBRET; HEK293).
`C1=C(CCNCc2ccccc2)CCCC1` has an IC50 of 20 µg/mL (pheS, with PheT subunit (Acinetobacter baumannii, UniProt D0CA72); phenylalanine activation, inhibitor).

Repeated from above:
For `CC(C)CC(NC(=O)C1OC1C(=O)O)C(=O)NCCCCN=C(N)N` (stereo not shown), the IC50 was 33.7 nM (Pro-cathepsin H (Homo sapiens, UniProt P09668); enzyme activity, inhibitor).
With `COc1c(C)c2c(c(O)c1CCC(C)CCC(=O)Nc1ccc(Cl)c(C(F)(F)F)c1)C(=O)OC2` (stereo not shown) the Ki was 60 nM (Inosine-5'-monophosphate dehydrogenase (Cryptosporidium parvum, UniProt Q8T6T2); inhibitor; pH 8.0, 25 °C, added: NAD 300 µM, IMP 250 µM).
With `NC(=O)c1cn(C[C@H](NC(=O)Cc2cccs2)B(O)O)nn1` the Ki was 224 ± 2 nM (ADC-7 beta-lactamase (Acinetobacter baumannii, UniProt Q6DRA1); enzyme activity, inhibitor; 5 min preincubation, pH 7.4, room temperature, added: nitrocefin).
